# Assay results gathered from unrelated publications.
# Protocols differ between the studies behind these lines. “And” joins repeats or separate records; there may be more than shown. ± gives the spread as reported.
# Luciferin 4-monooxygenase: Luciferin 4-monooxygenase (Photinus pyralis, UniProt P08659)
# Chain of UniProt P08659 (whole entry, looked up): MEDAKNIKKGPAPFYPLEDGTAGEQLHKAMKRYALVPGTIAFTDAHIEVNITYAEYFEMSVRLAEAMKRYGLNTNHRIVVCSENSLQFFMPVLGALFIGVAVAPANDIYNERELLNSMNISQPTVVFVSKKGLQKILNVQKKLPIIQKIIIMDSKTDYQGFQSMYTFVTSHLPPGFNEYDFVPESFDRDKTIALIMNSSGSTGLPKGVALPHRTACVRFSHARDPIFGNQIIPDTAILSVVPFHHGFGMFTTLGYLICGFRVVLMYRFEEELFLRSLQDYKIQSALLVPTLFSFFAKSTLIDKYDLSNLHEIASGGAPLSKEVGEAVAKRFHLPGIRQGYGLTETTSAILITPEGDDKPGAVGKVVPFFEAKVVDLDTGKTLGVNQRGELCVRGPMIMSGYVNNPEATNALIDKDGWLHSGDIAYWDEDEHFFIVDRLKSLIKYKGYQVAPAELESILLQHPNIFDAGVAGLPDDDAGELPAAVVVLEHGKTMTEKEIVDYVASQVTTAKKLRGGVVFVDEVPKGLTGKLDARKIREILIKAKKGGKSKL
# HTR1E: 5-hydroxytryptamine receptor 1E (HTR1E, Homo sapiens, UniProt P28566)
# Chain of UniProt P28566 (whole entry, looked up): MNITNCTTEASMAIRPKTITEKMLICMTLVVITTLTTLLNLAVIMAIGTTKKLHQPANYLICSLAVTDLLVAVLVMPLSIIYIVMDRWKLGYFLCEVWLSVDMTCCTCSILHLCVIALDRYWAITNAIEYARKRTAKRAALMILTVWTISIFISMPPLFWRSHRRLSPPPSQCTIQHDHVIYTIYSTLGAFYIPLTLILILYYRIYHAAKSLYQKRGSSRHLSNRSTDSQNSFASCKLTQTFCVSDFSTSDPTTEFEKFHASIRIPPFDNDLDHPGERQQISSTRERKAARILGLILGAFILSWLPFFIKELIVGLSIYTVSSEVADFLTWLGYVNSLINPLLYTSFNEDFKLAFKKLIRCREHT
# Palmitoyl-protein thioesterase 1: Palmitoyl-protein thioesterase 1 (Homo sapiens, UniProt P50897)
# Chain of UniProt P50897 (whole entry, looked up): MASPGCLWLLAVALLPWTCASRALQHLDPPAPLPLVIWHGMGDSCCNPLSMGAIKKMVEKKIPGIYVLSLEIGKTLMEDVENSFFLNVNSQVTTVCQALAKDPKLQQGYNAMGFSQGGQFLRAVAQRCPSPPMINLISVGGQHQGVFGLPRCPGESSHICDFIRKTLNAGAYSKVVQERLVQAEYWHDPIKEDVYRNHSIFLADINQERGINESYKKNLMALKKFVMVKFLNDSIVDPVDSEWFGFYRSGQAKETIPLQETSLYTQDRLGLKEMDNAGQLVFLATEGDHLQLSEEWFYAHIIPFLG
# Chain of UniProt Q16853 (whole entry, looked up): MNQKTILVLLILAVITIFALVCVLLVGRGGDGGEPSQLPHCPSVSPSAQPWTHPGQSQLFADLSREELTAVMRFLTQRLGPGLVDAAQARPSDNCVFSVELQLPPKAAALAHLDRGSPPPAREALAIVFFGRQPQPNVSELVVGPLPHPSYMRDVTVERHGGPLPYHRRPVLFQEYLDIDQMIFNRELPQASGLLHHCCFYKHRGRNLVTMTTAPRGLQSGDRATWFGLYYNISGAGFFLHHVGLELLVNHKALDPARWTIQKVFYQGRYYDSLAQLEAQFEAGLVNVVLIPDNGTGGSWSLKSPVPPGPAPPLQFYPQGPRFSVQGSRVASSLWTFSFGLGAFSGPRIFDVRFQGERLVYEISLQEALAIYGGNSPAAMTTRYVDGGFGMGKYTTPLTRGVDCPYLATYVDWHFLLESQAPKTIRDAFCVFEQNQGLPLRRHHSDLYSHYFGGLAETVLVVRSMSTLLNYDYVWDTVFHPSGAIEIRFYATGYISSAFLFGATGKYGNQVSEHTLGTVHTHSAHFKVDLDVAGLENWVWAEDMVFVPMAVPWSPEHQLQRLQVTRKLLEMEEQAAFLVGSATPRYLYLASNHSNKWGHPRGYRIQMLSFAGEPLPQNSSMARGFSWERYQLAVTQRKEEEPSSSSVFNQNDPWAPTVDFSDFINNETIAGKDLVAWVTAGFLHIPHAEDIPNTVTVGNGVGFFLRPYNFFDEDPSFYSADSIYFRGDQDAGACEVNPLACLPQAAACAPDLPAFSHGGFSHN
# Chain of UniProt P04070 (whole entry, looked up): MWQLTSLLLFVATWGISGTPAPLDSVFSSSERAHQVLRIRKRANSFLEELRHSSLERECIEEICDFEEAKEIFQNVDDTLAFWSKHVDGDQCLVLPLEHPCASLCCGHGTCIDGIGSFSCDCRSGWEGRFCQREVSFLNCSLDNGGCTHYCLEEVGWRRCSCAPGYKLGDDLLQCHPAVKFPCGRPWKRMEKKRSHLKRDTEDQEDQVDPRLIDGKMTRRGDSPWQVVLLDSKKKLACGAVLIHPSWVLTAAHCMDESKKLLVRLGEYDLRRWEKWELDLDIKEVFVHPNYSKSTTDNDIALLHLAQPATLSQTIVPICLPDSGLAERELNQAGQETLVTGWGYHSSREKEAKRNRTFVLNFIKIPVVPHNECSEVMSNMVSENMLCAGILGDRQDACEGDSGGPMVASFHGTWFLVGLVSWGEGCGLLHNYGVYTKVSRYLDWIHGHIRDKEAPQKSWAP
# Chain of UniProt P06396 (whole entry, unmodified, looked up): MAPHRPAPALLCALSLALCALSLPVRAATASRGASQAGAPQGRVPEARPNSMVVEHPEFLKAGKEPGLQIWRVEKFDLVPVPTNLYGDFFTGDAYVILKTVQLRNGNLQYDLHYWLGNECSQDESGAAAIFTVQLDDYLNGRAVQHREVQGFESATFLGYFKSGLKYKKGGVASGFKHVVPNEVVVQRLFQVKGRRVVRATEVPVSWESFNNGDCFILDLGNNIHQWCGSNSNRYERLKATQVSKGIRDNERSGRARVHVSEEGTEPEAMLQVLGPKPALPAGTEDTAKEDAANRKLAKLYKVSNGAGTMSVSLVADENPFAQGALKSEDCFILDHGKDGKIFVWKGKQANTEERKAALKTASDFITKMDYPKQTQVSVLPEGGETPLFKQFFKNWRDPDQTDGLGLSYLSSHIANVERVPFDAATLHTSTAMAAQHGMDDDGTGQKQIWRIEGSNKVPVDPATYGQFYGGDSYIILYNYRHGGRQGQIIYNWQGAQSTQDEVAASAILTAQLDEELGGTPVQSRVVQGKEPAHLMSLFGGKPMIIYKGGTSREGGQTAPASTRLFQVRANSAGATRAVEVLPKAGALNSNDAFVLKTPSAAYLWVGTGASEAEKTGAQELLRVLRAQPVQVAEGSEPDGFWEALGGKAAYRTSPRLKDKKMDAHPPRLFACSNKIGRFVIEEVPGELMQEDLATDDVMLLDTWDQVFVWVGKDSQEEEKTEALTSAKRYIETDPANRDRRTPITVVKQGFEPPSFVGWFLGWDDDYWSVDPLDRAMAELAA
# Chain of UniProt Q14164 (whole entry, looked up): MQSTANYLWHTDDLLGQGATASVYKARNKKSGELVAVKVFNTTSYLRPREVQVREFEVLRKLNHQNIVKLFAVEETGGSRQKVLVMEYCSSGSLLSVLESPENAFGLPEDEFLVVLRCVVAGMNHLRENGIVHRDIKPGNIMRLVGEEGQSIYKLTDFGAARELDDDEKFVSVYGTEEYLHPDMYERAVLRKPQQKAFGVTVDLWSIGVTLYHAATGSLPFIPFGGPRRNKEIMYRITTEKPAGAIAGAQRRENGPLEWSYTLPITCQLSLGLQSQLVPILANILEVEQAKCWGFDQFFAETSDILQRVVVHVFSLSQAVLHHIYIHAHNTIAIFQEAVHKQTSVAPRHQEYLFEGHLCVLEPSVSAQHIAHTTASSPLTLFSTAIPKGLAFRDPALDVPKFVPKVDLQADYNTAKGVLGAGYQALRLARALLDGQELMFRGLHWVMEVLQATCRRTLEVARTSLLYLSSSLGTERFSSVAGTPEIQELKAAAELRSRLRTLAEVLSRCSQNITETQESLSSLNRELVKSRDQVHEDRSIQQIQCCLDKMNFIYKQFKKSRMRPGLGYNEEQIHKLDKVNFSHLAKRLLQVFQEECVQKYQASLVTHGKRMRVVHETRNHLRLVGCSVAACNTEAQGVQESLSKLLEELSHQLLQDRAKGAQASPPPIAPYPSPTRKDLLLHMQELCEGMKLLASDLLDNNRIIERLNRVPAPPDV
# Chain of UniProt Q8N884 (whole entry, looked up): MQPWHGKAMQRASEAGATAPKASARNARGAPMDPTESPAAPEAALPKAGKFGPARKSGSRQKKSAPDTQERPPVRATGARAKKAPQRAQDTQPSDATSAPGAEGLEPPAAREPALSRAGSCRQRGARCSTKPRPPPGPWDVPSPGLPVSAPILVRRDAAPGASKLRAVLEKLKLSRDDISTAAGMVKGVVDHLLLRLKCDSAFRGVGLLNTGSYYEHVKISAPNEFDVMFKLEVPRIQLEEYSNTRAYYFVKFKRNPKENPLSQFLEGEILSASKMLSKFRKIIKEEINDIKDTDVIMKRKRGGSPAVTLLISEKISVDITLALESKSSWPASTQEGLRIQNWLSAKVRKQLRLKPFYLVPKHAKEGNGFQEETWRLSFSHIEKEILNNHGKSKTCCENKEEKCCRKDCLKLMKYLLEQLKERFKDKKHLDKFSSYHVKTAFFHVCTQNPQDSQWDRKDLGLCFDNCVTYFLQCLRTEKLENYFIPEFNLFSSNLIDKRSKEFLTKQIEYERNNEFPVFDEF
# Chain of UniProt P07237 (whole entry, looked up): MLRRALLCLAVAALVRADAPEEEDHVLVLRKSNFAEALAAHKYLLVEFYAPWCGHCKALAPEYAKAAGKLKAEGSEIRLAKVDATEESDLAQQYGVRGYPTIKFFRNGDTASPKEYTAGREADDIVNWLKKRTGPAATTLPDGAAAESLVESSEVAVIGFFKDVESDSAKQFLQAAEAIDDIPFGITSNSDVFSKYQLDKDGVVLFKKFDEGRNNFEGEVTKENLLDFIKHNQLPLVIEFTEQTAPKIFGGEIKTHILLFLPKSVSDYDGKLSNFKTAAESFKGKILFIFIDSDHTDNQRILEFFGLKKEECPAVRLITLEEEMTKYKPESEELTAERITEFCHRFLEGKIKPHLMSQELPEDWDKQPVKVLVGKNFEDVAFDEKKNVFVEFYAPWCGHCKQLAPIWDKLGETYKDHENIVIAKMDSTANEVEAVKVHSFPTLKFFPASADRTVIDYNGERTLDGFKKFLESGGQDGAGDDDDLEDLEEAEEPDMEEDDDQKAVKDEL
Structure (SMILES),tested on,test,test system,setting,inhibition
COc1ccc2cc3[n+](cc2c1OC)CCc1cc2c(cc1-3)OCO2,THP-1,pyroptotic LDH release,,"2 µM, 40 min, together with: LPS then nigericin",2.32%
COc1cccc(-c2cc(=O)c3ccccc3o2)c1N,Luciferin 4-monooxygenase,"luciferase luminescence, inhibitor",cell-free,"50 µM, counter-screen",75.6%
Cc1noc(NS(=O)(=O)c2ccc(N=NN(C)O)cc2)c1C,"α-glucosidase, rat intestine",enzyme activity,,"180 µg/mL, together with: 4-nitrophenyl α-D-glucopyranoside",33 ± 0.013%
O=C(Cn1ncc(N2CCCC2)cc1=O)OCc1ccccc1,Luciferin 4-monooxygenase,"luciferase luminescence, inhibitor",cell-free,"50 µM, counter-screen",78.7%
N=C(N)c1ccc(OCCCCCOc2ccc(C(=N)N)cc2)cc1,"PROC (Homo sapiens, UniProt P04070)",,,concentration not given,> 90%
CC1(O)CCC(C(C)(C)O)CC1 (stereo not shown),THP-1,pyroptotic LDH release,,"2 µM, 40 min, together with: LPS then nigericin",27.3%
c1cnc2c(c1)ccc1cccnc12,rat aminopeptidase III (NAP-2),enzyme activity,,1 mM,90%
Cc1ccnc(C)c1OC[C@H]1CN(CCN2CCc3ccccc32)CCO1,HTR1E,radioligand binding,,"concentration not given, together with: [3H]5-HT",-10%
CN(C)/N=N/c1[nH]cnc1C(N)=O,Palmitoyl-protein thioesterase 1,Spectrum Collection screen,,"concentration not given, together with: substrate 20 µM",70.9%
CCCN(O)N=Nc1ccc(S(=O)(=O)Nc2onc(C)c2C)cc1,"α-glucosidase, rat intestine",enzyme activity,,"240 µg/mL, together with: 4-nitrophenyl α-D-glucopyranoside",52.5 ± 0.01%
CCCCCCCC/C=C1/C=C(C(F)(F)F)c2cc(OC)c(OC)cc21,"P4HB (Homo sapiens, UniProt P07237)","insulin reduction, inhibitor",,"concentration not given, 37 °C, low micromolar preincubation",inhibited
Cc1cccc(N(O)N=Nc2ccc(S(=O)(=O)Nc3nccs3)cc2)c1,"α-glucosidase, rat intestine",enzyme activity,,"120 µg/mL, together with: 4-nitrophenyl α-D-glucopyranoside",17.5 ± 2.16%
Cc1nn(-c2nc3c(F)cc(F)cc3s2)c(O)c1C(c1ccc(C(F)(F)F)cc1)c1c(C)nn(-c2nc3c(F)cc(F)cc3s2)c1O,"Cyclic GMP-AMP synthase, catalytic domain; with DNA (CGAS, Homo sapiens, UniProt Q8N884)","cGAS phase separation, inhibitor",,200 µM,98.3%
NC/C(=C\F)COc1cccc(Cn2c(=S)[nH]c(=O)c3[nH]cnc32)c1,"AOC3 (Homo sapiens, UniProt Q16853)","H2O2 production, Amplex Red",,"1.111 µM, recombinant human enzyme",99.8%
CC[C@@H]1[C@H](F)C(=O)N[C@@H]1COc1nccc2cc(C(N)=O)c(OC)cc12,"IKBKE (Homo sapiens, UniProt Q14164)","ATP-site probe binding, ActivX profiling",THP-1 cell lysate,"0.04 mM, Lys1 site",7.3%
Cc1ccnc(OC[C@H]2CN(CC(=O)N3CCc4ccccc43)CCO2)c1,HTR1E,radioligand binding,,"concentration not given, together with: [3H]5-HT",-8.9%
Cc1cccc(N(O)N=Nc2ccc(S(=O)(=O)Nc3cc(C)on3)cc2)c1,"α-glucosidase, rat intestine",enzyme activity,,"240 µg/mL, together with: 4-nitrophenyl α-D-glucopyranoside",40 ± 0.04%
COc1cc(C(=O)NS(=O)(=O)c2ccccc2C)ccc1Cc1cn(C)c2ccc(NC(=O)OC3CCCC3)cc12,"Volume-regulated anion channel subunit LRRC8C, part LRRC8A IL1 chimera (LRRC8C, Homo sapiens, UniProt Q8TDW0, C43G/S11C)","ion current, inhibitor, whole-cell patch clamp",HCT LRRC8-/- cells,"3 µM, +100 mV",9.51% and 11% and 15.2% and 6.77% and 23.8%
Cc1ncccc1OC[C@@H]1CN(CCN2CCc3ccccc32)CCO1,HTR1E,radioligand binding,,"concentration not given, together with: [3H]5-HT",-13.2%
Cc1cccc(N(O)N=Nc2ccc(S(=O)(=O)Nc3onc(C)c3C)cc2)c1,"α-glucosidase, rat intestine",enzyme activity,,"240 µg/mL, together with: 4-nitrophenyl α-D-glucopyranoside",42.5 ± 1.26%
Nc1ncnc2[nH]cnc12,"Gelsolin, peptide (GSN, Homo sapiens, UniProt P06396, D214Y)","amyloid aggregation, ThT fluorescence",,"100 µM, 12 h, 37 °C, cpd to peptide 1:1 molar",23%
CCN(CC)CCNc1ccc(CO)c2sc3ccccc3c(=O)c12,Palmitoyl-protein thioesterase 1,Spectrum Collection screen,,"concentration not given, together with: substrate 20 µM",80.6%

# Some of these lines once more:
Structure (SMILES),tested on,test,test system,setting,inhibition
CC1(O)CCC(C(C)(C)O)CC1 (stereo not shown),THP-1,pyroptotic LDH release,,"2 µM, 40 min, together with: LPS then nigericin",27.3%
c1cnc2c(c1)ccc1cccnc12,rat aminopeptidase III (NAP-2),enzyme activity,,1 mM,90%
Cc1ccnc(C)c1OC[C@H]1CN(CCN2CCc3ccccc32)CCO1,HTR1E,radioligand binding,,"concentration not given, together with: [3H]5-HT",-10%
